Assay results pooled from the literature.
Lines come from different studies, so protocols differ. ± marks the error that the study gave.

Cc1nnc2c3c(-c4ccc5ccccc5n4)cc(-c4ccccc4)nc3n3c(C)nnc3n12  IC50 (RPE-1; cell growth or viability, MTT; 48 h): 19.8 µM
CC1=C2[O][Ru-]([Cl])[O+]=C2C=CN1CCCN1C=CC2=[O+][Ru-]([Cl])[O]C2=C1C.Cc1ccc(C(C)C)cc1.Cc1ccc(C(C)C)cc1  IC50 (SISO-oxo oxoplatin-resistant; crystal violet; 96 h): 32.2 µM
O=C(CCc1ccc(CNC(C(=O)OC2CCCC2)C2CCCCC2)cn1)NO (stereo not drawn)  IC50 (human CD14+ monocytes; M-CSF differentiation; 20 h then washout, together with: M-CSF): 0.019 µM
CCCC(CCC)C(=O)[O][Pt]([NH2])([NH2])([Cl])([Cl])[O]C(=O)c1ccccc1OC(C)=O  IC50 (C13 cisplatin-resistant; cytotoxicity, MTT; 72 h): 0.77 ± 0.04 µM
CC(=O)c1cnc(N)nc1N1CC[C@H]1c1nn2ccc(Cl)c2c(=O)n1-c1ccccc1  IC50 (human CD4 T cells; Th17 differentiation, refers to: IL-17A): 0.063 µM
C=CCc1cc(OC)c(OC(C)=O)c(OC)c1  IC50 (RT-112; MTT; 24 h): > 50 µM
Cc1c(C)c(C)[c-](C)c1C.Fc1cccnc1-c1[c-]cccc1.[Cl-].[Ir+3]  IC50 (A2780 cells; cell growth, SRB; 24 h exposure, 72 h recovery): > 50 µM
C=C1C(=O)[C@@]23CC[C@@H]4[C@](C)(COC(C)=O)CCC[C@@]4(C)[C@@H]2[C@@H](O)C[C@@H]1C3 (single isomer, unassigned)  IC50 (786-0; cell growth or viability, MTT): 8 µM
[Cl][Pt-]1([Cl])[S]C(Nc2ccccc2)=N[N+]1=Cc1ccc(-c2ccccc2)s1  IC50 (CRFK; cell growth or viability): 65 µM
C=CC(OC(C)=O)c1ccc(OC)cc1 (stereo not drawn)  IC50 (EJ-28; MTT; 24 h): > 50 µM
Cc1ccnc(Oc2ccc(-c3c(-c4ccc(NC(=O)C(C)C)cc4)n(C)c4ncnc(N)c34)cc2F)n1  IC50 (SNU-16; cell growth or viability, ATP luminescence; 96 h): 4.87 µM
Cc1cc(/C=C/C#N)cc(C)c1Oc1cc(Nc2ccc(C#N)cn2)nc2ccncc12  IC50 (MOLT-3; 48 h): > 120 µM
S=c1n(-c2ccccc2)c2c3ccccc3nc3[n+]2[n]1[Ir-3]12([S]3)([c]3ccc4ccccc4c3-c3sc4ccccc4[n+]31)[c]1ccc3ccccc3c1-c1sc3ccccc3[n+]12  IC50 (MRC9; cell viability, MTT; dark): > 25 µM
COc1cc(N2CCN(C(=O)CN)CC2)ccc1Nc1ncc(Cl)c(Nc2ccccc2P(C)(C)=O)n1  IC50 (NCI-H3122; cell growth or viability, CCK-8; 48 h): 0.069 µM
Cc1c2ccccc2n2c1c(-c1ccccc1)c(S(=O)(=O)c1ccccc1)c1ccccc12  IC50 (LS174T; cell growth or viability, MTT; 72 h): > 100 µM
CC1CC(=O)N(CCCCN)N=C1c1ccc(NC(=O)N2Cc3ccncc3C2)cc1 (stereo not drawn)  IC50 (A549-C4.4a; cell viability, CellTiter-Glo): 0.063 µM
COc1cccc(Cc2cc(CCC(=O)NCCNc3cccc4c(S(=O)(=O)O)cccc34)nn(CC(=O)Nc3ccc(Br)cc3)c2=O)c1  IC50 (human neutrophils; calcium flux, antagonist; 10 min preincubation, together with: fMLF 5 nM): 0.00016 ± 4.3e-05 µM
CCCCCCCCCC(=O)N[C@@H](Cc1ccccc1)C(=O)N[C@@H](Cc1ccccc1)C(=O)N[C@@H](Cc1ccccc1)C(=O)N[C@@H](Cc1ccccc1)C(=O)N[C@@H](CCCCN)C(=O)N[C@@H](CCCCN)C(=O)N[C@@H](CCCCN)C(=O)N[C@@H](CCCCN)C(=O)N[C@@H](CCCCN)C(N)=O  IC50 (HCEC; cytotoxicity): 27.5 µg/mL
O=C(/C=C/c1ccc(Cl)cc1)N1CCC2(CC1)CN(Cc1ccc(Cl)c(Cl)c1)C(=O)O2  IC50 (EBI2-overexpressing mouse B cells; B cell chemotaxis, antagonist; 5 h, together with: 7α,25-OHC 0.1 nM): 7e-06 µM
CCCCCCCCC=CCCCCCCCC(=O)OCC1OC(n2ccc(N)nc2=O)C(F)(F)C1O (stereo not drawn)  IC50 (MOLT-4/C8; cell growth; together with: NBMPR 100 µM): 0.12 ± 0.05 µM
CCCCCCN(CCCCCC)C1=[S+][Au-2]2([S]1)[c]1ccccc1-c1cccc[n+]12.F[P-](F)(F)(F)(F)F (stereo not drawn)  IC50 (BT-333 glioblastoma; MTT; 72 h): 1.38 ± 0.03 µM
NS(=O)(=O)c1ccc(NC(=O)NN[C@@H]2OC[C@H](O)[C@H](O)[C@H]2O)cc1  IC50 (HCEC; cell growth or viability, MTT; 96 h): > 100 µM
NC(=O)c1cccnc1.O=c1[nH]cc(F)c(=O)[nH]1.O=c1[nH]cc(F)c(=O)[nH]1.O=c1[nH]cc(F)c(=O)[nH]1  IC50 (JEG-3; cell growth or viability, MTT): 0.444 µM
O=C(c1cc(Cc2n[nH]c(=O)c3ccccc23)ccc1F)N1CCN(C(=O)C2CC2)CC1  IC50 (U87; cell viability, MTT; 168 h): 27.7 ± 1.3 µM
COc1cc2c(cc1C(C)(C)O)CCC1C(C)(C)c3nc(C)ncc3C[C@]21C (mixture of isomers)  IC50 (HAF; cell growth or viability, SRB; 24 h): 113 µM
CC1=CC(C)=[N+]2C1=C(CO)c1c(C)cc(C)n1[B-]2(F)F  IC50 (RPE-1; cell viability, resazurin; 0.1667 h, 510 nm irradiation 2.44 J/cm2): 5 ± 1 µM
CC(C)c1cccc(C(C)C)c1-n1c2c([n+](-c3c(C(C)C)cccc3C(C)C)[c]1[Cu-][Cl])-c1cccc3cccc-2c13  IC50 (C13 cisplatin-resistant; cell viability, MTT; 72 h): 7.7 ± 0.7 µM
Cc1c(C)n(-c2c(C(C)C)cccc2C(C)C)c(=[Se])n1-c1c(C(C)C)cccc1C(C)C.[Cl][Ag]  IC50 (LoVo MDR; MTT; 72 h): 1.3 ± 0.2 µM
CC(=O)[O-].O.O.O.O.[Ni+2].[O-]c1ccc(Br)cc1C=NCCN1CCOCC1  IC50 (NHDF normal fibroblasts; cell viability, MTT; 72 h): 59.2 µg/mL
CCn1nc2c(c1Nc1nc(-c3ccc(-n4cnc(C)c4)c(OC)n3)cs1)CCCC2  IC50 (CHO APPwt/PS1 M146L; Aβ42 production): 0.047 ± 0.005 µM
O=[N+]([O-])c1ccc(C=[N+]2N=C(Nc3ccccc3)[S][Pt-]2([Cl])[Cl])s1  IC50 (CEM human lymphocytes; cell proliferation): 8.1 µM
C=CCc1ccc(O)c(-c2cc(CC=C)ccc2O)c1  IC50 (UACC-62; cell growth, IncuCyte confluence): 64 µM
CCn1cc[n+](CC)[c]1[Au-][Cl]  IC50 (RC-124 kidney epithelial; cell proliferation, crystal violet staining; 96 h): 6.1 ± 2.6 µM
CC1=CC(C)=[N+]2C1=C(CO)c1c(C)cc(C)n1[B-]2(C)C  IC50 (RPE-1; cell growth or viability, resazurin; dark): > 100 µM
CCN(CC)CCN1C(=O)c2ccc3c4cccc5c(NCCN)ccc(c6ccc(c2c36)C1=O)c54  IC50 (human PBMC; cell growth or viability, SRB; 72 h): 235 µM
Cc1cc(C#N)cc(C)c1Oc1cc(Nc2ccc(C#N)cn2)nc2cnccc12  IC50 (MOLT-3; 48 h): > 127 µM
O=C(N=P12CN3CN(CN(C3)C1)C2)c1cccc[c]1[Pd][Br].O=S(=O)([O-])c1cccc(P(c2cccc(S(=O)(=O)[O-])c2)c2cccc(S(=O)(=O)[O-])c2)c1.[Na+].[Na+].[Na+]  IC50 (human PBMC; cytotoxicity, MTT; 24 h, 1% DMSO): > 500 µM
CN1CCCNC(=O)CC2(CCCCC2)CC(=O)NCCCN(C)CCCNc2cccc3c2C(=O)c2cccc(c2C3=O)NCCC1  IC50 (SAS; cell growth or viability, CCK-8; 48 h): > 20 µM
Cn1ccc(-c2cc(Cl)c(Cl)c3[nH]c4c(c23)CN(C(=O)CO)CC4)n1  IC50 (cGAS I309T mouse BMDM; CXCL10 secretion, inhibitor; together with: 100 bp dsDNA): 0.82 µM
CCCCCCCCCCCCCCCCC1CC(=O)NCCCN(C)CCCCN(C)CCCN1C (stereo not drawn)  IC50 (LLC-PK11; cell growth or viability, neutral red; 48 h): 1.7 µg/mL
O=C1NCC(Cc2ccccc2)N(CC2CCCN2CC(CC2CCCCC2)N2CC(Cc3ccc(O)cc3)N(CCc3ccccc3)C(=O)C2=O)C1=O (stereo not drawn)  IC50 (U87; viability; 72 h): > 100 µM
[Cl][Au].[Se]=c1n(C23CC4CC(CC(C4)C2)C3)ccn1C12CC3CC(CC(C3)C1)C2  IC50 (LoVo MDR; MTT; 72 h): 4.4 ± 0.9 µM
S=c1n(-c2ccccc2)c2c3ccccc3nc3[n+]2[n]1[Ir-3]12([S]3)([c]3ccccc3-c3cccc[n+]31)[c]1ccccc1-c1cccc[n+]12  IC50 (MRC9; cell viability, MTT; irradiation 450 nm, 15.5 mW/cm^2, 15 min): > 50 µM
C=CC(=O)N1CC=C(c2c(-c3ccc(Oc4cccc(C)n4)cc3)c3c(N)ncnc3n2C)C1  IC50 (SNU-16; cell growth or viability, ATP luminescence; 96 h): 0.005 µM
COc1ccc(-c2cc(=O)c3c(O)cc(O[C@@H]4O[C@H](CO)[C@@H](O)[C@H](O)[C@H]4O)cc3o2)cc1OC  IC50 (AML12; cell growth or viability, resazurin; 72 h): > 100 µM
[Cl][Pt-]1([Cl])[S]C(Nc2ccccc2)=N[N+]1=Cc1cccs1  IC50 (CRFK; cell growth or viability): 6.7 µM
C[C@@H]1NC(=O)[C@@H](CCC(=O)O)NC(=O)[C@H](Cc2ccccc2)NC(=O)[C@H](CCC(=O)O)NC(=O)[C@H](CC(N)=O)NC1=O  IC50 (WM-115; cell adhesion, inhibitor; 1 h, together with: immobilized CagL RAD mutant): 54 to 430 µM
CCCCCCCCCC[N]1C(=O)c2cccc[n+]2[Ir]1[Cl].Cc1c(C)c(C)[c-](C)c1C  IC50 (SH-SY5Y; cell growth or viability, SRB; 24 h): 10 µM
Cc1c(C)c(C)[c-](C)c1C.O=Cc1c[c-]c(-c2ccccn2)cc1.[Cl-].[Ir+3]  IC50 (A2780 cells; cell growth, SRB; 24 h exposure, 72 h recovery): 6.9 ± 0.3 µM
Cc1cc(NC(=O)c2cccc(N)c2)ccc1Nc1nccc(-c2cccnc2)n1  IC50 (SH-SY5Y MKK7-ACT; c-Jun phosphorylation, inhibitor, western blot, refers to: phospho-c-Jun Ser73; 6 h, together with: doxycycline): 8.97 ± 2.68 µM
[Fe+2].c1ccc(N=P(c2ccccc2)(c2ccccc2)[c-]2cccc2)cc1.c1ccc(N=P(c2ccccc2)(c2ccccc2)[c-]2cccc2)cc1  IC50 (A2780cisR (cisplatin-resistant); cell growth, MTT; 74 h, 1% DMSO): 32.7 ± 6 µM
